{"data": "Results of several laboratories", "note": "A part holds a random share of what one study measured. “And” joins repeats or separate records; there may be more than shown.", "UniProt Q9UBF8, sequence (whole entry, looked up)": "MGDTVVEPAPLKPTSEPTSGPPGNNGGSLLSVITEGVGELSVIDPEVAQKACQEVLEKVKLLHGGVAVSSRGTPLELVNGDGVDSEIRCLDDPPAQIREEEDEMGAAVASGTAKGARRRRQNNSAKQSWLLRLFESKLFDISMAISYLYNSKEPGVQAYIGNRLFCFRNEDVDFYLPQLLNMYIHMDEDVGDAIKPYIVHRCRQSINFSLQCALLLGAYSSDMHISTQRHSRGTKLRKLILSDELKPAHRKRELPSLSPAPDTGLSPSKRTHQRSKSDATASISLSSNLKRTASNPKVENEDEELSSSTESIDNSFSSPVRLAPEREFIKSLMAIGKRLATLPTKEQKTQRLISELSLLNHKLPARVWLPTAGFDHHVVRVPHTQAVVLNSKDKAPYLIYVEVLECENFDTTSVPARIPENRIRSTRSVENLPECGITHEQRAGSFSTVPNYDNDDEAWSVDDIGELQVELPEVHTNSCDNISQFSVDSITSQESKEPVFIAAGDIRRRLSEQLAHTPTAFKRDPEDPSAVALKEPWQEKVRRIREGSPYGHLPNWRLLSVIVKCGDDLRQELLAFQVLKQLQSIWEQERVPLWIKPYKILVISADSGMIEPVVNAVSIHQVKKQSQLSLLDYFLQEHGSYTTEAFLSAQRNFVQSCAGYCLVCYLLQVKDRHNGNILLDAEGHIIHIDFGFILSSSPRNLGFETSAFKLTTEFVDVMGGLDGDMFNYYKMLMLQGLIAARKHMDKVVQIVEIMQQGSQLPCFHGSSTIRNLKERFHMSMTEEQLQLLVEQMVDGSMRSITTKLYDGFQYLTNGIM", "UniProt Q9Y4B6, sequence (whole entry, looked up)": "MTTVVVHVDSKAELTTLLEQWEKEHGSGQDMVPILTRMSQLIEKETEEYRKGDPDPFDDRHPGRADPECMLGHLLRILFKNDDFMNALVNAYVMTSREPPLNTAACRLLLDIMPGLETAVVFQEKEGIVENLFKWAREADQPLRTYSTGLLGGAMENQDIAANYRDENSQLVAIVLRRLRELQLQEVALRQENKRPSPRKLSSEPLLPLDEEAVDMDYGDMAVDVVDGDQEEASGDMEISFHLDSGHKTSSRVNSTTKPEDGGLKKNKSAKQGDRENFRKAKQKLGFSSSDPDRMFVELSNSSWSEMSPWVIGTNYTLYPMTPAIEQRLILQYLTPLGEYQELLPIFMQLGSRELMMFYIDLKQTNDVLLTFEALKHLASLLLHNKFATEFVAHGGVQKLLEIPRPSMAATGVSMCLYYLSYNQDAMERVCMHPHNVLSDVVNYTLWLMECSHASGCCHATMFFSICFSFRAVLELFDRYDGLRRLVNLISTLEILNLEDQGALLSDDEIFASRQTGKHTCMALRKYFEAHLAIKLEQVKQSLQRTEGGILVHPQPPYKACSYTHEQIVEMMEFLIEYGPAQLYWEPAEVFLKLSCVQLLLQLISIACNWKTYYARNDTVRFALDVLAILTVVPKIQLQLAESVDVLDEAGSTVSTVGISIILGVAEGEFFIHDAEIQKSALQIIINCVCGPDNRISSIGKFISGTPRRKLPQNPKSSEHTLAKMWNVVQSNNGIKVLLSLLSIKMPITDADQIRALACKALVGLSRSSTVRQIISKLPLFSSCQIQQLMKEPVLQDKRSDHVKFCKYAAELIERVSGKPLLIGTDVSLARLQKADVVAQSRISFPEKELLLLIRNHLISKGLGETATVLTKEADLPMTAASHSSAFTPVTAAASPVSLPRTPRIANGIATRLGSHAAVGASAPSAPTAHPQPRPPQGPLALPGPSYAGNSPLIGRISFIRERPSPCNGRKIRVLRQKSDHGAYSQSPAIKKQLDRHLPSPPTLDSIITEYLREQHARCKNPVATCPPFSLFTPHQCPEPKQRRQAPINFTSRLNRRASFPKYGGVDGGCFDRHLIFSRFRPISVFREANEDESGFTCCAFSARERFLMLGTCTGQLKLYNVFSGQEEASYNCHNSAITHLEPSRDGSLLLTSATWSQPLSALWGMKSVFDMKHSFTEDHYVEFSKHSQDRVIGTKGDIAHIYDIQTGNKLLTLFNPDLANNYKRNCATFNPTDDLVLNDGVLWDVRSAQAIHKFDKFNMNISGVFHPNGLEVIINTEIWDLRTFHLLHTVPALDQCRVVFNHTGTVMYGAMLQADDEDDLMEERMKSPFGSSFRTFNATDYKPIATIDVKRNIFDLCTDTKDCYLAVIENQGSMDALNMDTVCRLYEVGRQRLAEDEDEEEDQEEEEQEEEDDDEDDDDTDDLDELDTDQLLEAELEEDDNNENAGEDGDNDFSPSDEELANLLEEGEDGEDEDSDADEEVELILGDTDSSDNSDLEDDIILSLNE", "UniProt Q96PY6, sequence (whole entry, looked up)": "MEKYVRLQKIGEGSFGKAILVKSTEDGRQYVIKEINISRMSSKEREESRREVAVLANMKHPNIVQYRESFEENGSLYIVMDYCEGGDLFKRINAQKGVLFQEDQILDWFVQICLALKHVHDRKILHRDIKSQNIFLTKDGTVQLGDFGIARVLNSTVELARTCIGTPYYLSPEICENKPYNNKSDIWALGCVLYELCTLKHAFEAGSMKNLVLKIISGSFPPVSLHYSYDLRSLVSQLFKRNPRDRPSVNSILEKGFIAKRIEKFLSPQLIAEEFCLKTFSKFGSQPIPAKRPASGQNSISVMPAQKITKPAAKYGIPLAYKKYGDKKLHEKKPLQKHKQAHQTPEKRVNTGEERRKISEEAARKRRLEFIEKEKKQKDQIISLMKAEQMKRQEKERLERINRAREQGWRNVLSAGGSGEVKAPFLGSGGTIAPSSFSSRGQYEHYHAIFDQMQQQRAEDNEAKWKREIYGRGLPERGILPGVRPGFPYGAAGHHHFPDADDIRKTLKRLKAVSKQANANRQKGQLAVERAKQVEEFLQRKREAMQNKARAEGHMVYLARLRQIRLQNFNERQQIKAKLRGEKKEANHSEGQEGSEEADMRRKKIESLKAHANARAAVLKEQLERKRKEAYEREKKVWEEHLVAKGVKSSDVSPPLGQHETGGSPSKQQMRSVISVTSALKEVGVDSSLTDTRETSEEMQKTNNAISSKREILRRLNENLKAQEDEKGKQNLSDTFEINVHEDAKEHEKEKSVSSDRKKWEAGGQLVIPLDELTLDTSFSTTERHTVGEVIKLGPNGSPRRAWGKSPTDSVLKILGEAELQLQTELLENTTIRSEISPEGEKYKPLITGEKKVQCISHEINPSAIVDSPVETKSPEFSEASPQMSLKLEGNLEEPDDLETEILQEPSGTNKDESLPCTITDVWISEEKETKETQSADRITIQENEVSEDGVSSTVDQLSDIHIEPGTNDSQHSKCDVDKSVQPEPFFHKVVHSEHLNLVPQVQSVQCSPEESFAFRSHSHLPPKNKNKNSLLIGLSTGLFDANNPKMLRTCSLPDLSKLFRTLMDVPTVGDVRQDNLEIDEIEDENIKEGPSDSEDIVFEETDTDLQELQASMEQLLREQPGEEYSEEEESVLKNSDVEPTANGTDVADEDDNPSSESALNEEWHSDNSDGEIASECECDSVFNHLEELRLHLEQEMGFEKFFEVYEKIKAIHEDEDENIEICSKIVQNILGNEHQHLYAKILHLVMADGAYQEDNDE", "UniProt P62344, sequence (whole entry, looked up)": "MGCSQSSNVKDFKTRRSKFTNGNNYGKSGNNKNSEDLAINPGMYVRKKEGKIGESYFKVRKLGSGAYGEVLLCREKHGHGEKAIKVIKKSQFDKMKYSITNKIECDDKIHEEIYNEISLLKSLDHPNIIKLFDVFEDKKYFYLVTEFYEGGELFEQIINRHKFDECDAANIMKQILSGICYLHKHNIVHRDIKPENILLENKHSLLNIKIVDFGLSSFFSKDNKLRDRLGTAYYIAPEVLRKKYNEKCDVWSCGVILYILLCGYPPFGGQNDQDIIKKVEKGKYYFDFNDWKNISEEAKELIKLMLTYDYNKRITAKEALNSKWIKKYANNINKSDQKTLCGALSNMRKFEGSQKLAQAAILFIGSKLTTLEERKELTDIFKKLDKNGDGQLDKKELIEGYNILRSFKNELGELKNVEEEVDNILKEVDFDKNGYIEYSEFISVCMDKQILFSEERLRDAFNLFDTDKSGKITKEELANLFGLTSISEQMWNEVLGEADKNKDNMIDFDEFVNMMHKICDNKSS", "UniProt P27361, sequence (whole entry, looked up)": "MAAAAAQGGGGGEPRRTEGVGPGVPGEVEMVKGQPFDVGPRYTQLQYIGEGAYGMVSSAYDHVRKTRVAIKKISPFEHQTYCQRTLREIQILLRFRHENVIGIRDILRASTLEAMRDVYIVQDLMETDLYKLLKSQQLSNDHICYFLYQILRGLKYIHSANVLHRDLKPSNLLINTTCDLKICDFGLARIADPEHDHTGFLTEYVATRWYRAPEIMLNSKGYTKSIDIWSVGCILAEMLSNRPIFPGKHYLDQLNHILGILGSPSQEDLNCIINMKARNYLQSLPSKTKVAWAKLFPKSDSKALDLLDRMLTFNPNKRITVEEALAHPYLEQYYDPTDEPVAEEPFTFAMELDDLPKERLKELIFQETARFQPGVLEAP", "UniProt P51817, sequence (whole entry, looked up)": "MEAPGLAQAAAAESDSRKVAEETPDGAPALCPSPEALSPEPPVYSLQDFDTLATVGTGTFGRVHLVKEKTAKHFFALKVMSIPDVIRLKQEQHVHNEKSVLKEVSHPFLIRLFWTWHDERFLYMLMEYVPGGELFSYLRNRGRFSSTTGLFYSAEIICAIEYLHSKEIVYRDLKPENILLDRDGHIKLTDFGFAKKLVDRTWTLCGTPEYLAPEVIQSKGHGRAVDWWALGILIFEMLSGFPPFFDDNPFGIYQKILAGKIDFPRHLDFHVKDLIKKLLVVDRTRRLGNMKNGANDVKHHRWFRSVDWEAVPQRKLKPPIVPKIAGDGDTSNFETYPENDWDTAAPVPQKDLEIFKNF"}
{"data": "Study 1", "SMILES": "C[C@@H]1CN(c2ccc(-c3cc(C(=O)NCCOCCOCCOCCOCCNC(=O)Cn4cc(-c5[nH]cc(C(=O)N[C@@H](CC(N)=O)c6ccc(F)c(Cl)c6)c5-c5ccc(Cl)cc5F)cn4)ccc3F)cc2NC(=O)c2c[nH]c(=O)cc2C(F)(F)F)C[C@H](C)N1C", "observed": "thermal unfolding", "technique": "differential scanning fluorimetry", "tested at": "5.5 µM", "direction": "higher = more unfolded", "WDR5": "WD repeat-containing protein 5 (WDR5, Homo sapiens, UniProt P61964)"}
{"target": "WDR5", "temperature": "85.41 °C", "SYPRO Orange fluorescence": "40300 a.u."}
{"target": "WDR5", "temperature": "61.61 °C", "SYPRO Orange fluorescence": "9460 a.u."}
{"target": "WDR5", "temperature": "92.41 °C", "SYPRO Orange fluorescence": "41000 a.u."}
{"target": "WDR5", "temperature": "87.61 °C", "SYPRO Orange fluorescence": "43400 a.u."}
{"target": "WDR5", "temperature": "53.21 °C", "SYPRO Orange fluorescence": "14300 a.u."}
{"target": "DCAF1 (Homo sapiens, UniProt Q9Y4B6)", "temperature": "25.8 °C", "SYPRO Orange fluorescence": "7550 a.u."}
{"target": "WDR5", "temperature": "30.4 °C", "SYPRO Orange fluorescence": "15000 a.u."}
{"data": "Study 2", "SMILES": "COc1cc(-c2nc3ccc(C(=O)NCCCN4CCN(c5cccc(C)c5C)CC4)cc3n2C2CCC2)cc(OC)c1OC", "observed": "binding", "technique": "competition with immobilised ligand", "tested at": "1 µM"}
{"target": "Myosin-IIIb (MYO3B, Homo sapiens, UniProt Q8WXR4)", "remaining binding [%]": 84}
{"target": "EPHA8 (Homo sapiens, UniProt P29322)", "remaining binding [%]": 96}
{"target": "PIK3CA (Homo sapiens, UniProt P42336, E545K)", "remaining binding [%]": 100}
{"target": "SBK1 (Homo sapiens, UniProt Q52WX2)", "remaining binding [%]": 85}
{"target": "Aurora kinase B (AURKB, Homo sapiens, UniProt Q96GD4)", "remaining binding [%]": 82}
{"target": "TGFBR1 (Homo sapiens, UniProt P36897)", "remaining binding [%]": 81}
{"target": "HCK (Homo sapiens, UniProt P08631)", "remaining binding [%]": 91}
{"target": "LCK (Homo sapiens, UniProt P06239)", "remaining binding [%]": 34}
{"target": "TESK1 (Homo sapiens, UniProt Q15569)", "remaining binding [%]": 98}
{"target": "CAMK2A (Homo sapiens, UniProt Q9UQM7)", "remaining binding [%]": 97}
{"target": "ERBB2 (Homo sapiens, UniProt P04626)", "remaining binding [%]": 98}
{"target": "PRKCI (Homo sapiens, UniProt P41743)", "remaining binding [%]": 91}
{"target": "CDPK1 (Plasmodium falciparum, UniProt P62344)", "remaining binding [%]": 87}
{"target": "CLK3 (Homo sapiens, UniProt P49761)", "remaining binding [%]": 97}
{"target": "MAP3K7 (Homo sapiens, UniProt O43318)", "remaining binding [%]": 95}
{"target": "ANKK1 (Homo sapiens, UniProt Q8NFD2)", "remaining binding [%]": 72}
{"target": "MAP3K13 (Homo sapiens, UniProt O43283)", "remaining binding [%]": 88}
{"data": "Study 3", "Compound": "CN(C1COC1)C(C)(C)/C=C(\\C#N)C(=O)N1CCC[C@H]1Cn1nc(-c2ccc(Oc3ccccc3)cc2F)c2c(N)ncnc21", "observed": "kinase activity"}
{"target": "KIT (Homo sapiens, UniProt P10721)", "tested at": "1 µM", "inhibition [%]": 10}
{"target": "MAPK3 (Homo sapiens, UniProt P27361)", "tested at": "1 µM", "inhibition [%]": 0}
{"target": "MAPK14 (Homo sapiens, UniProt Q16539)", "tested at": "1 µM", "inhibition [%]": -2}
{"target": "EPHB3 (Homo sapiens, UniProt P54753)", "tested at": "1 µM", "inhibition [%]": -2}
{"target": "DAPK3 (Homo sapiens, UniProt O43293)", "tested at": "0.1 µM", "inhibition [%]": -4}
{"target": "MAPK8 (Homo sapiens, UniProt P45983)", "tested at": "0.1 µM", "inhibition [%]": 1}
{"target": "SRC (Homo sapiens, UniProt P12931)", "tested at": "0.1 µM", "inhibition [%]": 12}
{"target": "NEK1 (Homo sapiens, UniProt Q96PY6)", "tested at": "1 µM", "inhibition [%]": 4}
{"target": "MAPK12 (Homo sapiens, UniProt P53778)", "tested at": "1 µM", "inhibition [%]": -7}
{"target": "ABL1 (Homo sapiens, UniProt P00519)", "tested at": "1 µM", "inhibition [%]": -1}
{"target": "PI4KB (Homo sapiens, UniProt Q9UBF8)", "tested at": "1 µM", "inhibition [%]": -5}
{"target": "PRKX (Homo sapiens, UniProt P51817)", "tested at": "1 µM", "inhibition [%]": 2}
{"target": "HASPIN (Homo sapiens, UniProt Q8TF76)", "tested at": "0.1 µM", "inhibition [%]": 3}
{"data": "Study 4", "Structure (SMILES)": "CC(C)(C)c1ccc(Oc2ccc3c(c2)OC(O)(C(=O)O)C(=O)N3Cc2ccccc2)cc1 (stereo not drawn)"}
{"organism": "Arabidopsis thaliana", "test": "root length", "system": "Col-0, seedlings", "setting": "25 µg/mL", "how to read": "baseline: water control", "inhibition": "51.2%"}
{"organism": "Glycine max", "test": "fresh weight", "setting": "soil surface spray, 150 g ai/ha, 21 days, pre-emergence crop safety", "inhibition": "11.8% and 12.3% and 13.1%"}
{"organism": "Arabidopsis thaliana", "test": "root length", "system": "Col-0, seedlings", "setting": "3.125 µg/mL", "inhibition": "7.74%"}
{"organism": "Arabidopsis thaliana", "test": "root length", "system": "Col-0, seedlings", "setting": "25 µg/mL", "inhibition": "51.2%"}
{"organism": "Amaranthus retroflexus", "test": "fresh weight", "setting": "150 g ai/ha, post-emergence treatment", "inhibition": "59.4% and 59% and 59.2%"}
{"organism": "Arabidopsis thaliana", "test": "hypocotyl length", "system": "Col-0", "setting": "12.5 µg/mL, 7 days, seed germination, dark", "inhibition": "22.8%"}
{"organism": "Arabidopsis thaliana", "test": "root length", "system": "Col-0, seedlings", "setting": "6.25 µg/mL", "how to read": "baseline: water control", "inhibition": "22.6%"}
{"organism": "Arabidopsis thaliana", "test": "root length", "system": "Col-0, seedlings", "setting": "50 µg/mL", "how to read": "baseline: water control", "inhibition": "64.8%"}
{"organism": "Arabidopsis thaliana", "test": "hypocotyl length", "system": "Col-0", "setting": "100 µg/mL, 7 days, seed germination, dark", "inhibition": "48.6%"}
{"organism": "Arabidopsis thaliana", "test": "root length", "system": "Col-0, seedlings", "setting": "50 µg/mL", "inhibition": "64.8%"}
{"organism": "Avena fatua", "test": "fresh weight", "setting": "150 g ai/ha, pre-emergence treatment", "inhibition": "78.3% and 70.9% and 72.5%"}
{"organism": "Arabidopsis thaliana", "test": "hypocotyl length", "system": "Col-0, seedlings", "setting": "100 µg/mL", "inhibition": "48.6%"}
{"organism": "Arabidopsis thaliana", "test": "hypocotyl length", "system": "Col-0, seedlings", "setting": "12.5 µg/mL", "inhibition": "22.8%"}
{"organism": "Arabidopsis thaliana", "test": "hypocotyl length", "system": "Col-0", "setting": "25.0 µg/mL, 7 days, seed germination, dark", "inhibition": "28.2%"}
{"note": "Excerpt of the above (study 3):"}
{"target": "KIT (Homo sapiens, UniProt P10721)", "tested at": "1 µM", "inhibition [%]": 10}
{"target": "EPHB3 (Homo sapiens, UniProt P54753)", "tested at": "1 µM", "inhibition [%]": -2}
{"target": "MAPK3 (Homo sapiens, UniProt P27361)", "tested at": "1 µM", "inhibition [%]": 0}
{"target": "NEK1 (Homo sapiens, UniProt Q96PY6)", "tested at": "1 µM", "inhibition [%]": 4}
{"target": "PRKX (Homo sapiens, UniProt P51817)", "tested at": "1 µM", "inhibition [%]": 2}
{"target": "PI4KB (Homo sapiens, UniProt Q9UBF8)", "tested at": "1 µM", "inhibition [%]": -5}
{"target": "MAPK8 (Homo sapiens, UniProt P45983)", "tested at": "0.1 µM", "inhibition [%]": 1}
